Results gathered from unrelated publications.
Compare with care: the assays were run in different laboratories. Values joined by “and” are separate records of one study, mostly repeats; a detail may differ. ± marks the error that the study gave.
Rbp1: Retinol-binding protein 1 (Rbp1, Rattus norvegicus, UniProt P02696)
Methyl-accepting chemotaxis protein CtaA sensing domain: Methyl-accepting chemotaxis protein CtaA, sensing domain (Pseudomonas fluorescens, UniProt Q3K7T6)
Methyl-accepting chemotaxis protein CtaA: Methyl-accepting chemotaxis protein CtaA (Pseudomonas fluorescens, UniProt Q3K7T6)

Molecule	target	test	system	setting	Kd
CC(=O)N[C@@H](CC(C)C)C(=O)N[C@@H](CCCCN)C(=O)N[C@@H](CCCCN)C(=O)N[C@@H](CC(C)C)C(=O)N[C@@H](CC(C)C)C(=O)N[C@@H](CCCCN)C(=O)N[C@@H](CC(C)C)C(=O)N[C@@H](CC(C)C)C(=O)N[C@@H](CCCCN)C(=O)N[C@@H](CCCCN)C(=O)N[C@@H](CC(C)C)C(=O)N[C@@H](CC(C)C)C(=O)N[C@@H](CCCCN)C(=O)N[C@@H](Cc1c[nH]c2ccccc12)C(=O)N[C@@H](C)C(=O)NCC(N)=O	16S rRNA A-site hairpin (Escherichia coli)	competitive fluorescence anisotropy		pH 7.4, 20 °C, together with: rhodamine-Rev peptide	0.0033 ± 0.0003 µM
O=C(O)c1cc(NC(=O)C2CC2c2ccccc2)ccc1O (centres unmarked)	GTPase KRas (KRAS, Homo sapiens, UniProt P01116, G12D)	microscale thermophoresis		first high-affinity site, together with: GNP-bound	0.35 ± 0.08 µM
N[C@@H](Cc1ccc(OP(=O)(O)O)cc1)C(=O)O	Tyrosine-protein phosphatase non-receptor type 11, N-SH2 domain (PTPN11, Homo sapiens, UniProt Q06124, K55V/N37V/T42A)	binding to superbinder N-SH2 domain		298 K	160 µM
COc1cccc2c1C(=O)c1c(O)c3c(c(O)c1C2=O)C[C@@](O)(C(C)=O)C[C@@H]3O[C@H]1C[C@H](N)[C@H](O)[C@H](C)O1	HIV-1 SL2 RNA stem-loop	binding, ESI-FTMS titration		pH 7.5	22.7 ± 3.6 µM
Nc1nc2c(ncn2C2OC3COP(=O)(O)OC4C(COP(=O)(O)OC3C2O)OC(n2cnc3c(=O)[nH]c(N)nc32)C4OC(=O)NCCCCCCNC(=O)c2ccc(-c3c4ccc(=O)cc-4oc4cc(O)ccc34)c(C(=O)O)c2)c(=O)[nH]1 (centres unmarked)	Transcriptional regulator BldD, C-terminal domain (Streptomyces venezuelae, UniProt F2RCL8)	fluorescence polarization		pH 7.5, 25 °C, apparent, multi-site assembly	1.8 ± 0.5 µM
O=C(NN=Cc1ccc(C[n+]2ccccc2)cc1)c1ccc2ccc3ccc(C(=O)NN=Cc4ccc(C[n+]5ccccc5)cc4)nc3c2n1	telomeric G4 DNA hybrid-1	binding, native ESI-MS	100 mM trimethylammonium acetate	1 mM KCl	0.31 µM
NC1(C(=O)NCCCn2cc(-c3ccc(OC(F)(F)F)cc3)c3cc(CN4CCN(Cc5c(Cl)cccc5Cl)CC4)ccc32)CCNCC1	GTPase KRas, GppNHp-bound (KRAS, Homo sapiens, UniProt P01116, G12D)	binding, 19F NMR titration			< 20 µM
O=C1c2c(O)ccc(O)c2C(=O)c2c(NCCNCCO)ccc(NCCNCCO)c21	HIV-1 SL2 RNA stem-loop	binding, ESI-FTMS titration		pH 7.5	6.6 ± 0.7 µM
[I-].[K+]	SLC4A1 (Homo sapiens, UniProt P02730)	Cl- exchange, inhibitor, 36Cl flux	erythrocytes, external	pH 11.6, 0 °C, internal Cl- 131 mM	28600 µM
CC1=C(/C=C/C(C)=C\C=C\C(C)=C\C=O)C(C)(C)CCC1	Rbp1	binding, fluorescence titration		pH 7.4, 25 °C	0.008 ± 0.004 µM
CC1=C[C@H](O)CC(C)(C)[C@H]1/C=C/C(C)=C/C=C/C(C)=C/C=C/C=C(C)/C=C/C=C(C)/C=C/C1=C(C)C[C@@H](O)CC1(C)C	StAR-related lipid transfer protein 3, START domain (STARD3, Homo sapiens, UniProt Q14849)	binding, SPR		25 °C	0.59 ± 0.03 µM
Cc1ccc(C(=O)Nc2cc(Br)ccc2C(=O)O)cc1S(=O)(=O)Nc1ccc(Cl)c(Cl)c1	Replication protein A 70 kDa DNA-binding subunit, N-terminal domain (RPA1, Homo sapiens, UniProt P27694)	fluorescence polarization competition		together with: FITC-ATRIP probe	0.81 ± 0.3 µM
CC(=O)N([O-])CCCCCNC(=O)CCC(=O)N([O-])CCCCCNC(=O)CCC(=O)N([O-])CCCCCN.[Fe+3]	Iron(3+)-hydroxamate-binding protein YxeB (yxeB, Bacillus subtilis, UniProt P54941)	binding, Trp fluorescence quenching		pH 7.4, together with: yxeB 100 nM	0.05 ± 0.03 µM
Nc1nc2c(ncn2[C@@H]2O[C@H](COP(=O)(O)OP(=O)(O)OP(=O)(O)O)[C@@H](O)[C@H]2O)c(=O)[nH]1	tRNA(His) guanylyltransferase (THG1, Saccharomyces cerevisiae, UniProt P53215, R133A)	nucleotidyl transfer, substrate, single-turnover kinetics		pH 7.5, room temperature, together with: ppp-tRNA(His)	85 ± 30 µM
C[C@H](N)C(=O)O	Methyl-accepting chemotaxis protein CtaA sensing domain	binding, thermal shift, curve fitting			2 ± 0.2 µM
Cc1ccnn1-c1cccc(NC(=O)CC2OC(=O)c3ccccc32)c1 (centres unmarked)	Complement C3 (Homo sapiens, UniProt P01024)	binding, SPR			450 µM
CC(C)C[C@H](N)C(=O)O	Methyl-accepting chemotaxis protein CtaA	binding, ITC		melting temperature	10 ± 2 µM
foliosidine	bft-3, proprotein (Bacteroides fragilis, UniProt O86049)	isothermal titration calorimetry		pH 7.4, 25 °C, zinc-bound, exosite binding	14 µM

Molecule	target	test	system	setting	Kd
N[C@@H](CO)C(=O)O	Methyl-accepting chemotaxis protein CtaA	binding, ITC			12 ± 1 µM
Nc1ncnc2c1ncn2[C@@H]1O[C@H](COP(=O)(O)OP(=O)(O)OP(=O)(O)O)[C@@H](O)[C@H]1O	TAOK2 (Homo sapiens, UniProt Q9UL54)				1.1 µM
CC1=C(/C=C/C(C)=C/C=C/C(C)=C/C=C/C=C(C)/C=C/C=C(C)/C=C/C2=C(C)CCCC2(C)C)C(C)(C)CCC1	Albumin (ALB, Homo sapiens, UniProt P02768)	binding, SPR, FastStep injection		pH 7.4, 25 °C, immobilized protein	1.44 ± 0.07 µM
CC1=C(/C=C/C(C)=C/C=C/C(C)=C\CO)C(C)(C)CCC1	Rbp1	binding, fluorescence titration		pH 7.4, 25 °C	0.003 ± 0.001 µM
CC(=O)N[C@H]1C(O)O[C@H](CO)[C@@H](O[C@@H]2O[C@H](CO)[C@H](O)[C@H](O)[C@H]2O)[C@@H]1O (some centres unmarked)	Galectin-3 (LGALS3, Homo sapiens, UniProt P17931)				38.6 ± 0.5 µM
CCCCCCCCCCCCCCCC(=O)SCCNC(=O)CCNC(=O)[C@H](O)C(C)(C)COP(=O)(O)OP(=O)(O)OC[C@H]1O[C@@H](n2cnc3c(N)ncnc32)[C@H](O)[C@@H]1OP(=O)(O)O	Carnitine O-palmitoyltransferase 1, liver isoform, C-terminal peptide (Rattus norvegicus, UniProt P32198)	intrinsic fluorescence quenching		CPT1 peptide 0.1 µM	0.005 ± 0.001 µM
Cc1cn([C@H]2C[C@H](O)[C@@H](COP(=O)(O)OP(=O)(O)OP(=O)(O)O)O2)c(=O)[nH]c1=O	DNA polymerase iota (Homo sapiens, UniProt Q9UNA4)	substrate		pH 8.0, 37 °C, pre-steady-state, Mg2+, together with: dNTP opposite O2-POB-dT template	42 ± 18 µM
Cn1cc(NC(=O)c2cc(NC(=O)c3cc(NC=O)cn3C)cn2C)cc1C(=O)NCCC(=N)N	HIV-1 SL2 RNA stem-loop	binding, ESI-FTMS titration		pH 7.5	75.4 ± 7.5 µM
Nc1ncnc2c1ncn2[C@@H]1O[C@H](COP(=O)(O)O)[C@@H](OP(=O)(O)O)[C@H]1O	SULT2A1 (Homo sapiens, UniProt Q06520)	binding, tryptophan fluorescence		pH 7.0, 37 °C, ligand-free enzyme	536 ± 26 µM
C#CC[C@H](NC(=O)[C@@H]1C[C@@H](C2CCCCC2)CN1C(=O)CSC1CCN(C(=O)CC[C@H](NC(=O)N[C@@H](CCC(=O)O)C(=O)O)C(=O)O)CC1)C(=O)NCCOCCOCCNC(=S)Nc1ccc2c(c1)C(=O)OC21c2ccc(O)cc2Oc2cc(O)ccc21	N-acetylated-alpha-linked acidic dipeptidase 2 (Homo sapiens, UniProt Q9Y3Q0)	cell-free assay, FP			0.038 µM
Nc1ncnc2c1ncn2[C@@H]1O[C@H](COP(=O)(O)OP(=O)(O)OP(=O)(O)O)[C@@H](O)[C@H]1O	tRNA(His) guanylyltransferase (THG1, Saccharomyces cerevisiae, UniProt P53215, R27A)	tRNA(His) adenylylation, substrate, single-turnover kinetics		pH 6.0, room temperature, together with: p-tRNA(His)	300 ± 100 µM
salvianolic acid B	Prothrombin (F2, Homo sapiens, UniProt P00734)	binding, intrinsic fluorescence		pH 7.4, 20 °C	21.7 ± 1.5 µM
CC(C)[C@H](N)C(=O)O	Methyl-accepting chemotaxis protein CtaA sensing domain	binding, thermal shift, unfolding equilibrium			2.5 ± 0.4 µM
Nc1ccn([C@@H]2O[C@H](CO)[C@@H](O)[C@H]2O)c(=O)n1	type 1 ribosome-inactivating protein (Momordica balsamina, UniProt D9J2T9)	surface plasmon resonance		25 °C	0.94 µM
CC(=O)N[C@@H](CC(C)C)C(=O)N[C@@H](CCCCN)C(=O)N[C@@H](CCCCN)C(=O)N[C@@H](CC(C)C)C(=O)N[C@@H](Cc1c[nH]c2ccccc12)C(=O)N[C@@H](CCCCN)C(=O)N[C@@H](CC(C)C)C(=O)N[C@@H](CC(C)C)C(=O)N[C@@H](CCCCN)C(=O)N[C@@H](CCCCN)C(=O)N[C@@H](CC(C)C)C(=O)N[C@@H](CC(C)C)C(=O)N[C@@H](CCCCN)C(=O)N[C@@H](CC(C)C)C(=O)N[C@@H](C)C(=O)NCC(N)=O	16S rRNA A-site hairpin (Escherichia coli)	competitive fluorescence anisotropy		pH 7.4, 20 °C, together with: rhodamine-Rev peptide	0.012 ± 0.001 µM
NC(=O)c1ccc[n+]([C@@H]2O[C@H](COP(=O)([O-])OP(=O)(O)OC[C@H]3O[C@@H](n4cnc5c(N)ncnc54)[C@H](O)[C@@H]3O)[C@@H](O)[C@H]2O)c1	ALDH1A2 (Homo sapiens, UniProt O94788)	isothermal titration calorimetry		30 °C, reverse titration	11.5 µM and 12 µM
CO[C@@H]1O[C@H](CO)[C@H](O)[C@H](O)[C@H]1O	Galectin-9, N-terminal CRD (LGALS9, Homo sapiens, UniProt O00182)	binding, competitive fluorescence polarization		20 °C, N-terminal domain	3300 µM

For quick reference, copied from above:
Molecule	target	test	system	setting	Kd
CC(C)[C@H](N)C(=O)O	Methyl-accepting chemotaxis protein CtaA sensing domain	binding, thermal shift, unfolding equilibrium			2.5 ± 0.4 µM
Nc1ccn([C@@H]2O[C@H](CO)[C@@H](O)[C@H]2O)c(=O)n1	type 1 ribosome-inactivating protein (Momordica balsamina, UniProt D9J2T9)	surface plasmon resonance		25 °C	0.94 µM
CC(=O)N[C@@H](CC(C)C)C(=O)N[C@@H](CCCCN)C(=O)N[C@@H](CCCCN)C(=O)N[C@@H](CC(C)C)C(=O)N[C@@H](Cc1c[nH]c2ccccc12)C(=O)N[C@@H](CCCCN)C(=O)N[C@@H](CC(C)C)C(=O)N[C@@H](CC(C)C)C(=O)N[C@@H](CCCCN)C(=O)N[C@@H](CCCCN)C(=O)N[C@@H](CC(C)C)C(=O)N[C@@H](CC(C)C)C(=O)N[C@@H](CCCCN)C(=O)N[C@@H](CC(C)C)C(=O)N[C@@H](C)C(=O)NCC(N)=O	16S rRNA A-site hairpin (Escherichia coli)	competitive fluorescence anisotropy		pH 7.4, 20 °C, together with: rhodamine-Rev peptide	0.012 ± 0.001 µM
NC(=O)c1ccc[n+]([C@@H]2O[C@H](COP(=O)([O-])OP(=O)(O)OC[C@H]3O[C@@H](n4cnc5c(N)ncnc54)[C@H](O)[C@@H]3O)[C@@H](O)[C@H]2O)c1	ALDH1A2 (Homo sapiens, UniProt O94788)	isothermal titration calorimetry		30 °C, reverse titration	11.5 µM and 12 µM
CO[C@@H]1O[C@H](CO)[C@H](O)[C@H](O)[C@H]1O	Galectin-9, N-terminal CRD (LGALS9, Homo sapiens, UniProt O00182)	binding, competitive fluorescence polarization		20 °C, N-terminal domain	3300 µM
